Measured values of several laboratories.
Lines come from different studies, so protocols differ. Values joined by “and” are separate records of one study, mostly repeats; a detail may differ. ± gives the spread as reported.

Compound | target or system | test | system | conditions | scale | endpoint | result
CCN(CC)CCNC(=O)c1cc(S(C)(=O)=O)ccc1OC | – | catalepsy bar test | female CD-1 mice | intraperitoneal, 200 mg/kg, 90 min after dosing | – | time on bar | 46.1 s and 40.5 s and 18.8 s and 35.3 s and 3.39 s
CC(C)NCC(O)c1ccc(O)c(O)c1 (centres unmarked) | – | – | ventricular cardiomyocytes, C57BL/6 mouse | dose not given, 0.2 s | – | sarcomere length | 1.49 µm
N#Cc1ccn2c(-c3ccncc3)c(-c3ccc(F)cc3)nc2c1 | – | kinase binding, competitor, MIB/MS competition, measured: ATG1 | Candida albicans cell lysate | 100 nM | baseline: DMSO | log2 fold change | -0.0408
C[C@@H](NC(=O)N1C(=O)[C@H](Cc2ccnc(N)c2)[C@H]1C(=O)O)C1CCCCC1 | – | – | human | iv infusion, 2.25 mg/kg/h, 24 h, unit not given | baseline: baseline | PT AUEC | 128
Cc1cc(Nc2ccc(S(F)(F)(F)(F)F)cc2)n2nc(C(C)(F)F)nc2n1 | – | measured: dihydroorotate | female CD-1 mice, pooled urine | oral, 300 mg/kg daily, 0-8 h after dose 10 | – | DHO concentration | 4.46 ± 0.516 µM
Cc1n[nH]c2ccc(-c3cc(OC[C@@H](N)Cc4ccccc4)cnc3-c3ccoc3)cc12 | – | kinase binding, competitor, MIB/MS competition, measured: HRK1 | Candida albicans cell lysate | 10 µM | baseline: DMSO | log2 fold change | -0.517
Cc1ccccc1C(=O)Nc1ccc(C(=O)N2CCCC(O)c3cc(Cl)ccc32)c(C)c1 (centres unmarked) | Nedd8-cullin1 interaction | neddylation, AlphaScreen | – | 100 µM | – | inhibition | 25.6%
C[C@H](Oc1ccc(Br)cc1-c1ccon1)C(=O)O | – | muscle velocity recovery cycles | human, tibialis anterior muscle | 400 mg twice daily, multiple doses, frequency ramp, last response at 30 Hz | baseline: placebo | peak amplitude change | -12.6%
N#CCC1CCN(c2nc(Nc3ccc(N4CCC(O)CC4)cc3)c3c(=O)[nH]ncc3n2)CC1 | – | Olink multiplex, measured: CD163 | human, serum | 40 mg, day 29 | baseline: baseline | fold change from baseline | -1.4
C[C@H]1C[C@H]2CSC(N)=N[C@@]2(c2nc(NC(=O)c3ccc(OC(F)F)cn3)cs2)CO1 | – | measured: Aβx-40 | healthy adults, plasma | 15 mg once daily, day 14 | baseline: placebo | percent change from baseline | -51.4%
NC(=O)c1cnc2[nH]ccc2c1N[C@@H]1[C@@H]2CC3C[C@H]1C[C@@](O)(C3)C2 | – | flow cytometry | Japanese healthy men, blood | oral, 10 mg twice daily, 72 h after day 7 dose | baseline: baseline | CD4+ effector T-cell change | 0.1%
COc1ccccc1[C@H](Cn1c(=O)n(C(C)(C)C(=O)O)c(=O)c2c(C)c(-c3ncco3)sc21)OC1CCOCC1 | – | – | human | 50 mg, post-treatment | – | blood ketones | 0.17 ± 0.048 mmol/L
O=C(O)CNC(=O)Cc1ccccc1 | – | – | ventricular cardiomyocytes, C57BL/6 mouse | dose not given, 0.24 s | – | sarcomere length | 1.64 µm
N#Cc1ccc2c(-c3ccncc3)c(-c3ccc(F)cc3)nn2c1 | – | kinase binding, competitor, MIB/MS competition, measured: CTK1 | Candida albicans cell lysate | 10 µM | baseline: DMSO | log2 fold change | -0.223
CN[C@@H]1COc2c(S(=O)(=O)NC(=O)Nc3c4c(cc5c3CCC5)CCC4)cnn2C1 | – | measured: IL-1β | human participants, whole blood ex vivo | 150 mg single dose, 72 h, with: LPS/ATP | baseline: baseline | inhibition | 6.3%
CCOC(=O)[C@H](CCc1ccccc1)N[C@H]1CCc2ccccc2N(CC(=O)O)C1=O | Nedd8-cullin1 interaction | neddylation, AlphaScreen | – | 100 µM | – | inhibition | 55.1%
OC(CCN1CCCCC1)(c1ccccc1)C1CC2C=CC1C2 (centres unmarked) | – | resting-state EEG | healthy elderly humans | oral, 2 mg, eyes open, LS mean | baseline: baseline | change, Gamma EEG power, in Fz-Cz | 14%

A few entries again:
Compound | target or system | test | system | conditions | scale | endpoint | result
N#CCC1CCN(c2nc(Nc3ccc(N4CCC(O)CC4)cc3)c3c(=O)[nH]ncc3n2)CC1 | – | Olink multiplex, measured: CD163 | human, serum | 40 mg, day 29 | baseline: baseline | fold change from baseline | -1.4
